Experimental data collected from several papers.
Every numbered part comes from another study and shows a few of its results, in no order. Changes are numbered by the printed parent chain.

Series 1 — method: protein binding microarray; form: double-stranded DNA, one strand shown; sample: in vitro; concentration: not given; relative to: not given; direction: higher = stronger binding; endpoint: E-score
Target: Histone acetyltransferase KAT6A, winged helix 2, GST fusion (KAT6A, Homo sapiens, UniProt Q92794, residues 85-181)
Setting: 8-mer, flanks averaged, mean of 2 arrays, mostly near background
Construct (chain): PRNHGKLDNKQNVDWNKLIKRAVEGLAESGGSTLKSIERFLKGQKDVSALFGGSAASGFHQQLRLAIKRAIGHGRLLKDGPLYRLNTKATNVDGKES
GTCCCAAC: 0.0149
CTGAGAGA: -0.0977
CTACTACC: -0.0821
AGACTACT: -0.128

Series 2 — method: protein-binding microarray; form: double-stranded DNA, one strand shown; sample: in vitro; concentration: not given; direction: higher = stronger binding; endpoint: E-score
Target: Max-binding protein MNT, bHLH-zipper, MAX partner unstated (MNT, Homo sapiens, UniProt Q99583, residues 220-300)
Setting: k-mer, scored over probes, only values ≥0.25
Residues (chain): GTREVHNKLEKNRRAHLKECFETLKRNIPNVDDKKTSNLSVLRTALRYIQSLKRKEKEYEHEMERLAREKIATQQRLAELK
CGTGTCAA: 0.32
ACACGCGC: 0.446
CGTGACCC: 0.375
ACGCACGG: 0.253

Mixed results
P1: CDC25A docking peptide (human); PPHRRRLLFACSP
P2: BRCA2 docking peptide (human); PSIKRNLLNEFDR; partner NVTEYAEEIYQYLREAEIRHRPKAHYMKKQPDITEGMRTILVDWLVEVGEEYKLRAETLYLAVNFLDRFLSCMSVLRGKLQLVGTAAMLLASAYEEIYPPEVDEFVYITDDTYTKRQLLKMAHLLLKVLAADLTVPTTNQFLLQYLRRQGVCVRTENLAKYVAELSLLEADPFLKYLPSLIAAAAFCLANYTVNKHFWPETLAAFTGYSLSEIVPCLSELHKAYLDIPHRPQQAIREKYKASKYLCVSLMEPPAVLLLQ
P3: RB1 docking peptide (human); PKPLKKLRFDIEG
P4: PKMYT1 docking peptide (human); SFEPRNLLSLFED; partner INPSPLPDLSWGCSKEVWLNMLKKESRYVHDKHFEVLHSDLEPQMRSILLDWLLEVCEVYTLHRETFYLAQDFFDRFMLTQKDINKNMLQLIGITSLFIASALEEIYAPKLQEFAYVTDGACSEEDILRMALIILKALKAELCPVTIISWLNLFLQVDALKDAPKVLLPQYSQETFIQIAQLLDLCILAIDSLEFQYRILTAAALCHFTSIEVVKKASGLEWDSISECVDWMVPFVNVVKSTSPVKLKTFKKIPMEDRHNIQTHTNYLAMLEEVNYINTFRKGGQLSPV
P1 A10F — normalised enrichment score (CCNA2, cyclin fold, Cln2 fusion (human); yeast growth competition, sequencing; yeast; strong parent motif; relative to: not given, higher = stronger binding): 3.33
PhoQ, residues 284 288 289 292 302 303 QWGLFV — fold induction (PhoP, residues 12 14 15 18 19 AQALL (Escherichia coli, UniProt P23836); Sort-seq, refers to: YFP reporter; E. coli; PhoQ-PhoP variant library, with: 10 µM Mg2+; relative to: high Mg2+ state, higher = stronger signaling): 4.15
P2 P1C — normalised enrichment score (CCNA1, cyclin fold, Cln2 fusion (human); yeast growth competition, sequencing; yeast; weak parent motif; relative to: not given, higher = stronger binding): 0.739
P3 P3K — normalised enrichment score (CCNB1, cyclin fold, Cln2 fusion (human); yeast growth competition, sequencing; yeast; weak parent motif; relative to: not given, higher = stronger binding): 0.594
P4 S9N — normalised enrichment score (CCNE2, cyclin fold, Cln2 fusion (human); yeast growth competition, sequencing; yeast; weak parent motif; relative to: not given, higher = stronger binding): 0.49

Excerpt of the above (mixed results):
P1 A10F — normalised enrichment score (CCNA2, cyclin fold, Cln2 fusion (human); yeast growth competition, sequencing; yeast; strong parent motif; relative to: not given, higher = stronger binding): 3.33
P2 P1C — normalised enrichment score (CCNA1, cyclin fold, Cln2 fusion (human); yeast growth competition, sequencing; yeast; weak parent motif; relative to: not given, higher = stronger binding): 0.739
